Results of several laboratories.
± marks the error that the study gave. In brackets after ≈: the same amount, converted by molar mass.
KCNH2: Voltage-gated inwardly rectifying potassium channel KCNH2 (KCNH2, Homo sapiens, UniProt Q12809)
UniProt Q12809, sequence (whole entry, looked up): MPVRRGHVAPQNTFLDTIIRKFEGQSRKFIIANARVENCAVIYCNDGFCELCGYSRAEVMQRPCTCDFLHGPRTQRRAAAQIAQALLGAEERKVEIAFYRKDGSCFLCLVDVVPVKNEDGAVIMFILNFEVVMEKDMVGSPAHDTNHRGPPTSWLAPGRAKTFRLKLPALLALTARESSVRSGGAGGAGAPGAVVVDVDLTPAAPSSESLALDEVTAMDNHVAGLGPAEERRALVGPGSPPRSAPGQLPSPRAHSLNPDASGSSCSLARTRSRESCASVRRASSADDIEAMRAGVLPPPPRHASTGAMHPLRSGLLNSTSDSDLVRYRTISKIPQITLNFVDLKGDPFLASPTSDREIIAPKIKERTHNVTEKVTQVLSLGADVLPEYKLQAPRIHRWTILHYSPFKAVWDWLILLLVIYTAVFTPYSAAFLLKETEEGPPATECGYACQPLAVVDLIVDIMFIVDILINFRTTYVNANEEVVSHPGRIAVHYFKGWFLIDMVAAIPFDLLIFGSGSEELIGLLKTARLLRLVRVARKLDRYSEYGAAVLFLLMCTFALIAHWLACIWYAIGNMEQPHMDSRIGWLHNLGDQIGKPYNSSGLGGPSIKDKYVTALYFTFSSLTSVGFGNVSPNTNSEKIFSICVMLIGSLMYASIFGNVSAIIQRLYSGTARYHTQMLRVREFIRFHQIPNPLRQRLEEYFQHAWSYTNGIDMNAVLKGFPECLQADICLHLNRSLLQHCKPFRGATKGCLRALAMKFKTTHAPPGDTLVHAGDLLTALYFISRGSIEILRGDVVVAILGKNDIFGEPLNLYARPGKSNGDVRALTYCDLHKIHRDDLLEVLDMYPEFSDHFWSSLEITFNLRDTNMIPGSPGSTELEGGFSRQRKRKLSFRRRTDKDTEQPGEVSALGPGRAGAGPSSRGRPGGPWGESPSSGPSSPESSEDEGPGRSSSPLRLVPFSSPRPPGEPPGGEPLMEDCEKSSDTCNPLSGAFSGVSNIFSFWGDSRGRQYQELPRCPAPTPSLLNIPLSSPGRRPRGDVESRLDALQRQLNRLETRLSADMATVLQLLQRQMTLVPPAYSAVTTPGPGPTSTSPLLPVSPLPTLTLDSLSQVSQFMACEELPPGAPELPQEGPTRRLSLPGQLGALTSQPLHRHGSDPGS
Ephx2: Bifunctional epoxide hydrolase 2 (Ephx2, Mus musculus, UniProt P34914)
UniProt P34914, sequence (whole entry, looked up): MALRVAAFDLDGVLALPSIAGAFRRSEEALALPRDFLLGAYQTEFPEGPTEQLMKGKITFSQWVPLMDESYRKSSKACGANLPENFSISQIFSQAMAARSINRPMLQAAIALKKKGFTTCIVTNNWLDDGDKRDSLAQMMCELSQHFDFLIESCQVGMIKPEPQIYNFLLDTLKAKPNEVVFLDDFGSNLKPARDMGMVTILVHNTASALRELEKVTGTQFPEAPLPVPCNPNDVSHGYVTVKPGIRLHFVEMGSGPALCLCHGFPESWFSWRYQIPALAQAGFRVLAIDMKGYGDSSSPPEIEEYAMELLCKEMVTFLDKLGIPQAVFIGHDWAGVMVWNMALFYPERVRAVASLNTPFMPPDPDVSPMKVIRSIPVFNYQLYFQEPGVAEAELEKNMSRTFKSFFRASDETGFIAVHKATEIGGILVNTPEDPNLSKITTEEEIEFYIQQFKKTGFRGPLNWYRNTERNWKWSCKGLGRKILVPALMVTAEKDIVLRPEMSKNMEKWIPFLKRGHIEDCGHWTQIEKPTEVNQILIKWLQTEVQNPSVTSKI
UniProt P04798, sequence (whole entry, looked up): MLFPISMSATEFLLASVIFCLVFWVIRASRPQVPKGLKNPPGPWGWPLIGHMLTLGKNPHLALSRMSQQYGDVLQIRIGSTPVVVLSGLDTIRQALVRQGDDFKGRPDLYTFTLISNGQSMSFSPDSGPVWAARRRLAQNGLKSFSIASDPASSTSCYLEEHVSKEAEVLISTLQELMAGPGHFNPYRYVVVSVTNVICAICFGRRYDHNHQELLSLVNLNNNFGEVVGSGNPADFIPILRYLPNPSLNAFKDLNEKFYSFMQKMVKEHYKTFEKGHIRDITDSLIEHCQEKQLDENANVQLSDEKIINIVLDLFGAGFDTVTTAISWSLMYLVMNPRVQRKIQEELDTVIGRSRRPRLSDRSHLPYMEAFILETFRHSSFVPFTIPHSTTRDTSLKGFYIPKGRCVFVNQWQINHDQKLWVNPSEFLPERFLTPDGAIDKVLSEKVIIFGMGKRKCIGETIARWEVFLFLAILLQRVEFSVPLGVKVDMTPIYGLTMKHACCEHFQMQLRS
UniProt P49888, sequence (whole entry, looked up): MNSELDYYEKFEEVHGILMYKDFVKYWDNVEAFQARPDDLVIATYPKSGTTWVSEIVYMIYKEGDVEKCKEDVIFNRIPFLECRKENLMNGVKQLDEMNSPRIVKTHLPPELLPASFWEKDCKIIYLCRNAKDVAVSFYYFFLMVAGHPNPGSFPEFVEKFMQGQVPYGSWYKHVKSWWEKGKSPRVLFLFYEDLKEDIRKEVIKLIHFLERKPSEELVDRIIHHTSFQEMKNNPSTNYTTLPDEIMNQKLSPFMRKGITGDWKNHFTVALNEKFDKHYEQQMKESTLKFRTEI

| SMILES | target or system | assay | test system | setting | how to read | endpoint | result |
| --- | --- | --- | --- | --- | --- | --- | --- |
| COc1ccc(CCCN[C@H](C)Cc2ccccc2)cc1 | KCNH2 | [3H]dofetilide binding | HEK293 membranes | 60 min, pH 7.4, added: 5 nM [3H]dofetilide | baseline: Ki hERG over Ki VMAT2 | selectivity ratio | 1090 |
| C=CC(=O)N1CC[C@H](n2nc(C#Cc3cc(OC)cc(OC)c3)c3c(N)ncnc32)C1 |  |  | mouse | 3 mg/kg |  | free AUC | 44 ng·h/mL |
| Cc1cc(OCc2nnc(SC3CCCC3)n2-c2cccnc2)ccc1-c1ccc(S(C)(=O)=O)cc1 | SNB-75 |  |  |  |  | GI50 | 1270 nM |
| O=C(Nc1ccc(C(F)(F)F)cc1)NC1CCN(c2c(NS(=O)(=O)Cc3ccccc3)c(=O)c2=O)CC1 | Ephx2 |  |  |  |  | IC50 | 1200 ± 98.4 nM |
| CN1CC[C@]23c4c5ccc(O)c4O[C@H]2C(=O)CC[C@H]3[C@H]1C5 | SULT1E1 (Homo sapiens, UniProt P49888) | substrate |  | 50 µM, 10 min, pH 7.5, 37 °C |  | specific activity | 0.18 ± 0.03 nmol/min/mg |
| CC(C)C[C@H](NC(=O)[C@H](Cc1ccccc1)NC(=O)CNC(=O)CNC(=O)[C@@H](N)Cc1ccc(O)cc1)C(=O)N[C@@H](CCCN=C(N)N)C(=O)O | bovine brain microvessel endothelial cells |  | cell monolayer | 18.6 µM, 4 °C, apical to basolateral |  | apparent permeability | 11.1 ×10⁻⁶ cm/s |
| O=c1cc(-c2ccccc2)oc2c1ccc1ccccc12 | Cytochrome P450 1A1 (CYP1A1, Homo sapiens, UniProt P04798) | enzyme activity, inhibitor |  | 20 min |  | IC50 | 860 ± 60 nM |
| O=C(Nc1ccc(-c2ccc3ccccc3n2)cc1)C1CCN(Cc2ccc(F)cc2F)CC1 |  |  | sodium phosphate buffer, 1% DMSO | pH 7.4 |  | solubility | 31 to 63 µM (≈ 14.2 to 28.8 µg/mL) |
| Cc1cc(/C=C/C#N)cc(C)c1Oc1nc(Nc2ccc(C#N)c(F)c2)nc2ccsc12 | KCNH2 | ion current, inhibitor |  | 3 µM |  | inhibition | 13.3% |
| Cc1ccccc1S(=O)(=O)Nc1c(N2CCC(NC(=O)Nc3ccc(OC(F)(F)F)c(F)c3)CC2)c(=O)c1=O | Ephx2 |  |  |  |  | IC50 | 1890 ± 167 nM |
| Cc1ccc(CN2CCC(C(=O)Nc3ccc(-c4cnc5ccccc5c4)cc3)CC2)cc1 |  |  | sodium phosphate buffer, 1% DMSO | pH 7.4 |  | solubility | 31 to 63 µM (≈ 13.5 to 27.4 µg/mL) |
| C(#Cc1c[nH]c2nccc(-c3ccncc3)c12)c1cccnc1 |  |  | mouse C57BL/6, male | intravenous, 2 mg/kg |  | half-life | 28.2 ± 16.8 min |
| CN1CCN(c2ccc(Nc3cc(-c4cccc(N5CCc6c(sc7c6CC(C)(C)C7)C5=O)c4CO)cn(C)c3=O)nc2)CC1 |  |  | human pooled plasma | 4 h |  | fraction unbound | 0.02 |
| Cc1ccccc1CN1CCC(C(=O)Nc2ccc(-c3cnc4ccccc4c3)cc2)CC1 |  |  | sodium phosphate buffer, 1% DMSO | pH 7.4 |  | solubility | 63 to 125 µM (≈ 27.4 to 54.4 µg/mL) |

For quick reference, copied from above:
| SMILES | target or system | assay | test system | setting | how to read | endpoint | result |
| --- | --- | --- | --- | --- | --- | --- | --- |
| Cc1cc(/C=C/C#N)cc(C)c1Oc1nc(Nc2ccc(C#N)c(F)c2)nc2ccsc12 | KCNH2 | ion current, inhibitor |  | 3 µM |  | inhibition | 13.3% |
